Published values collected from several papers.
Protocols differ between the studies behind these lines.

SMILES	test	system	setting	how to read	Cmax
C[C@@H]1CCO[C@H]2Cn3cc(C(=O)NCc4ccc(F)cc4F)c(=O)c(O)c3C(=O)N12	–	human, body weight 30 to <40 kg, plasma	oral, 25 mg, film-coated tablet, steady state	–	1930 ng/mL
CCn1cc(C(=O)N2CCOCC2)c(=O)c2cc(NC3Cc4ccccc4C3)cnc21	–	human, fed	oral suspension, 300 mg/day twice daily, day 1, arithmetic mean	–	699 ng/mL
C=CCn1c(=O)c2cnc(Nc3ccc(N4CCN(C)CC4)cc3)nc2n1-c1cccc(C(C)(C)O)n1	–	human	oral, 175 mg twice daily, cycle 1 day 17, with: durvalumab 1500 mg IV	geometric mean	960 nM
CCOc1c([C@H](C)n2nc(C)c3c(N)ncnc32)cc(Cl)c(F)c1[C@@H]1CNC(=O)C1	–	human, DLBCL, plasma	oral, 30 mg, day 15	–	3920 nM
C=CC(=O)N(C)CCOc1c(N)ncnc1-c1cc(F)cc(NC(=O)c2ccc(C3CC3)cc2F)c1C	–	human, whole blood	oral, 600 mg single dose	–	511 ng/mL
Cl.[2H]C([2H])([2H])CC(=O)c1cnc(NC(=O)C2CC2)cc1Nc1cccc(-c2ncn(C([2H])([2H])[2H])n2)c1OC	geometric mean	human	oral, 50 mg single dose, fasted, liquid	–	603 ng/mL
C[C@@H](Nc1cc(F)cc(F)c1)c1cc(C(=O)N(C)C)cc2c(=O)cc(N3CCOCC3)oc12	–	human	60 mg twice daily, vistusertib alone, geometric LSM	–	364 ng/mL
COc1ncc(-c2nc3c(n2C(C)C)[C@H](c2ccc(Cl)cc2)N(c2cc(Cl)cn(C)c2=O)C3=O)c(OC)n1	LC-MS/MS	human, plasma	oral, 7.5 mg, cycle 1 day 8, low-dose arm	–	48.1 ng/mL
CNC(=O)c1ccc(-c2cnc3ncc(Cc4ccc5ncccc5c4)n3n2)cc1F	–	human severe hepatic impairment NCI	oral, 200 mg single dose, geometric mean	–	950 ng/mL

A few entries again:
SMILES	test	system	setting	how to read	Cmax
C=CC(=O)N(C)CCOc1c(N)ncnc1-c1cc(F)cc(NC(=O)c2ccc(C3CC3)cc2F)c1C	–	human, whole blood	oral, 600 mg single dose	–	511 ng/mL
